Published values pooled from the literature.
Protocols differ between the studies behind these lines. Numbers after ± are the reported error.

CC(C)=CCC/C(C)=C/CNCCOC1C2CC3CC(C2)CC1C3 (centres unmarked) — CC50 (HEK-293T; cell growth or viability): 1.3 mg/L
CN(Cc1ccccc1)CC12C3CCC4C3C3C(CCC31)C42 — CC50 (dog cells; cytotoxicity; 3 (unit not given)): 0.04 µM
CC(C)C[C@H](NC(=O)CN)C(=O)N[C@@H](CC(C)C)C(=O)N[C@@H](CCCCN)C(=O)N[C@@H](CC(C)C)C(=O)N[C@@H](CC(C)C)C(=O)N[C@@H](CCCCN)C(=O)N[C@@H](CCCCN)C(=O)N[C@@H](CC(C)C)C(=O)N[C@@H](CC(C)C)C(=O)N[C@@H](CCCCN)C(=O)N[C@@H](CC(C)C)C(=O)N[C@@H](CC(C)C)C(=O)N[C@@H](CCCCN)C(N)=O — CC50 (HDMEC; cytotoxicity): 102 µM
CC(C)C[C@H](NC(=O)[C@H](CCCCN)NC(=O)[C@H](CC(C)C)NC(=O)[C@]1(C)CCCC=CCCC[C@](C)(N)C(=O)N[C@@H](C)C(=O)N[C@@H](Cc2ccc(O)cc2)C(=O)N[C@@H](Cc2ccccc2)C(=O)N1)C(=O)N[C@@H](C)C(=O)NCC(=O)N[C@@H](CCCNC(=N)N)C(=O)N[C@@H](Cc1c[nH]c2ccccc12)C(N)=O — CC50 (MT-4): 25 µM
Brc1c(Br)c(Br)c2[nH]nnc2c1Br — CC50 (Huh-7, mock-infected; MTS; 4 (unit not given)): 30.9 ± 1.6 µM
c1csc(CNCC23C4CCC5C4C4C(CCC42)C53)c1 — CC50 (dog cells; cytotoxicity; 3 (unit not given)): 30 µM
O=C(NCc1ccc(Cl)cc1Cl)c1cn(Cc2ccc(F)cc2)cc(O)c1=O — CC50 (HFF; cell growth or viability, MTS; 7 days): 3.7 µM
CC[C@H](C)[C@H](NC(=O)[C@H](CC(=O)O)NC(=O)[C@H](Cc1ccccc1)NC(=O)[C@H](CC(C)C)NC(=O)CN)C(=O)N[C@H](C(=O)N[C@@H](CCCCN)C(=O)N[C@@H](CCCCN)C(=O)N[C@H](C(=O)N[C@@H](CC(C)C)C(=O)N[C@@H](CCCCN)C(=O)N[C@@H](CC(C)C)C(=O)N[C@@H](CC(C)C)C(=O)N[C@@H](CCCCN)C(N)=O)C(C)C)C(C)C — CC50 (HDMEC; cytotoxicity): 85 µM
O=C(O[C@@H]1Cc2c(O)cc(O)cc2O[C@H]1c1ccc(O)c(O)c1)c1cc(O)c(O)c(O)c1 — CC50 (Huh-7, mock-infected; MTS; 4 (unit not given)): 33.8 ± 7.9 µM
COc1ccc(C(=O)OC2C(OC3C(O)COC(OC4CC5C6CC=C7CC(O)CCC7(C)C6CCC5(C)C4(O)C(C)C(=O)CCC(C)C)C3OC(C)=O)OCC(O)C2O)cc1 (centres unmarked) — CC50 (MRC5; cell growth or viability, MTT; 24 h): > 0.1 µM
Cc1ccc(NCCN(C)CCNc2ccnc3cc(Cl)ccc23)c2c(=O)c3ccccc3sc12 — CC50 (Vero-E6, HeLa, HEK-293T, Huh7.5 cells average; cell viability, nuclei count; 16 h): > 25 µM
COc1cc(OC)cc([C@@H]2c3cc(/C=C/c4cc(O)cc(O)c4)ccc3O[C@H]2c2ccc(O)cc2)c1 — CC50 (dog cells; 24 (unit not given)): 74.5 µM
CCN(CC)C12C3CCC4C3C3C(CCC31)C42 — CC50 (dog cells; cytotoxicity; 3 (unit not given)): > 100 µM
CN1CC(=O)N=C1N.C[C@H](CCC(=O)O)[C@H]1CC[C@H]2[C@@H]3CC[C@@H]4C[C@H](O)CC[C@]4(C)[C@H]3CC[C@]12C — CC50 (A549-hACE2): > 50 mg/L
CC(C)C[C@H](NC(=O)[C@H](CCCCN)NC(=O)[C@H](CC(C)C)NC(=O)[C@H](CCCCN)NC(=O)[C@H](CC(C)C)NC(=O)[C@H](CCCCN)NC(=O)[C@H](C)NC(=O)[C@@H](NC(=O)[C@H](CC(C)C)NC(=O)[C@H](CCCCN)NC(=O)[C@H](CC(C)C)NC(=O)[C@H](CCCCN)NC(=O)[C@H](CC(C)C)NC(=O)[C@H](CCCCN)NC(=O)[C@@H](N)CC(C)C)[C@@H](C)O)C(N)=O — CC50 (HaCaT; cell viability; 24 h, serum-free medium): 32.1 µM
C=CCCC[C@](C)(N)C(=O)N[C@@H](C)C(=O)N[C@@H](Cc1ccc(O)cc1)C(=O)N[C@@H](Cc1ccccc1)C(=O)N[C@@](C)(CCCC=C)C(=O)N[C@@H](CC(C)C)C(=O)N[C@@H](CCCCN)C(=O)N[C@@H](CC(C)C)C(=O)N[C@@H](C)C(=O)NCC(=O)N[C@@H](CCCNC(=N)N)C(=O)N[C@@H](Cc1c[nH]c2ccccc12)C(N)=O — CC50 (MT-4): 5 µM
CC(C)C[C@@H]1NC(=O)CNC(=O)[C@H](CC(N)=O)NC(=O)[C@H](CCCNC(=N)N)NC(=O)[C@H]([C@@H](C)O)NC(=O)[C@@H]2CSSC[C@@H]3NC(=O)[C@H]([C@@H](C)O)NC(=O)CNC(=O)CNC(=O)[C@H](C(C)C)NC(=O)[C@@H]4CSSC[C@H](NC(=O)[C@H]([C@@H](C)O)NC(=O)[C@H](CSSC[C@H](NC(=O)[C@H](C(C)C)NC(=O)[C@@H]5CCCN5C1=O)C(=O)NCC(=O)N[C@@H](CCC(=O)O)C(=O)N[C@@H]([C@@H](C)O)C(=O)N4)NC(=O)CNC(=O)[C@@H]1CCCN1C(=O)[C@H]([C@@H](C)O)NC(=O)[C@H](CC(N)=O)NC3=O)C(=O)N[C@@H](CO)C(=O)N[C@@H](Cc1c[nH]c3ccccc13)C(=O)N1CCC[C@H]1C(=O)N[C@@H](C(C)C)C(=O)N2 — CC50 (HeLa; resazurin; 24 h): 6.42 ± 0.59 µM
C=C(C)[C@@H]1CC[C@]2(C(=O)NC(CO)Cc3ccccc3)CC[C@]3(C)[C@H](CC[C@@H]4[C@@]5(C)CCCNC(C)(C)[C@@H]5CC[C@]43C)[C@@H]12 (some centres unmarked) — CC50 (HFF; cell growth or viability, ATP luminescence): 3.24 µM
COc1ccc(NC(=O)c2cn(Cc3ccc(F)cc3)cc(O)c2=O)cc1 — CC50 (HFF; cell growth or viability, MTS; 7 days): 6.5 µM
C=CC1=C(C)c2cc3nc(cc4[nH]c(cc5[nH]c(cc1n2)c(C)c5C=C)c(C)c4CCC(=O)OCCCCCCCCCC)C(CCC(=O)O)=C3C — CC50 (dog cells): 121 ± 2.18 µM
Oc1ccc([C@@H]2Oc3ccc(/C=C/c4cc(O)cc(O)c4)cc3[C@H]2c2cc(O)cc(O)c2)cc1 — CC50 (dog cells; 24 (unit not given)): 184 µM
C1CCN(CC23C4CCC5C4C4C(CCC42)C53)CC1 — CC50 (dog cells; cytotoxicity; 3 (unit not given)): 150 µM
CC(C)C[C@@H]1NC(=O)[C@H](CCCCN)NC(=O)[C@H](CC(C)C)NC(=O)[C@@](C)(NC(=O)[C@H](Cc2ccccc2)NC(=O)[C@H](Cc2ccc(O)cc2)NC(=O)[C@H](C)NC(=O)[C@@H](N)[C@@H](C)O)CCC=CCC[C@@](C)(C(=O)NCC(=O)N[C@@H](CCCNC(=N)N)C(=O)N[C@@H](Cc2c[nH]c3ccccc23)C(N)=O)NC1=O — CC50 (MT-4): 40 µM
O=C(NCc1ccc(F)c(F)c1)c1cn(Cc2ccc(F)cc2)cc(O)c1=O — CC50 (HFF; cell growth or viability, MTS; 7 days): 17 µM
COc1ccccc1/C=C/[N+](=O)[O-] — CC50 (H9c2; cell growth or viability; 72 h): 16.9 µM
O=C(NCc1ccc(F)cc1F)c1cn(Cc2ccc(F)cc2)cc(O)c1=O — CC50 (HFF; cell growth or viability, MTS; 7 days): > 50 µM
C=CC1=C(C)c2cc3nc(cc4[nH]c(cc5[nH]c(cc1n2)c(C)c5C=C)c(C)c4CCC(=O)OCCCCCCCCCCCCCCCCCC)C(CCC(=O)O)=C3C — CC50 (dog cells): 140 ± 1.58 µM
O=C(O[C@@H]1Cc2c(O)cc(O)cc2O[C@H]1c1cc(O)c(O)c(O)c1)c1cc(O)c(O)c(O)c1 — CC50 (Huh-7, mock-infected; MTS; 4 (unit not given)): 12 ± 12 µM
O[Si](CCCN1CCCCC1)(c1ccc(F)cc1)C1CCCCC1 (centres unmarked) — CC50 (BaF3; cell growth or viability, ATP luminescence; 72 h): 9.77 µM
C1=[N+]2CCCC[N+]3=Cc4ccc5[n]4[Au-]23[n]2c1ccc2-c1nc2ccccc2nc1-5.F[P-](F)(F)(F)(F)F — CC50 (melanoma cancer cell lines; NCI60 panel mean): > 100 µM
C=C1CCC2C(C)(CO)C(O)CCC2(C)C1CC(SC(=S)N1CCN(Cc2cc(F)c(F)cc2F)CC1)C1=CCOC1=O (centres unmarked) — CC50 (HEK-293T; MTT; 24 h): 41 ± 2.62 µM
CC(C)C[C@@H]1NC(=O)[C@H](Cc2ccc(O)cc2)NC(=O)[C@H](C(C)C)NC(=O)[C@@H]2CSSC[C@@H]3NC(=O)[C@H](CO)NC(=O)[C@@H]4CSSC[C@H](NC(=O)[C@@H]5CCCN5C(=O)[C@H](Cc5ccccc5)NC(=O)CNC(=O)[C@H](CC(N)=O)NC(=O)[C@H](CCCCN)NC(=O)[C@H](Cc5ccc(O)cc5)NC(=O)[C@H](CSSC[C@H](NC(=O)[C@@H]5CCCN5C1=O)C(=O)N[C@@H](Cc1ccccc1)C(=O)N[C@@H]([C@@H](C)O)C(=O)N[C@@H](C)C(=O)N[C@@H](C)C(=O)N[C@@H](C)C(=O)NCC(=O)N4)NC(=O)[C@H](C(C)C)NC(=O)[C@H](CCCCN)NC(=O)[C@H](CO)NC(=O)[C@H](CCCCN)NC3=O)C(=O)NCC(=O)N[C@@H](CCC(=O)O)C(=O)N[C@@H](CO)C(=O)N2 — CC50 (HeLa; resazurin; 24 h): 3.99 ± 0.21 µM

A few entries again:
CC(C)C[C@H](NC(=O)CN)C(=O)N[C@@H](CC(C)C)C(=O)N[C@@H](CCCCN)C(=O)N[C@@H](CC(C)C)C(=O)N[C@@H](CC(C)C)C(=O)N[C@@H](CCCCN)C(=O)N[C@@H](CCCCN)C(=O)N[C@@H](CC(C)C)C(=O)N[C@@H](CC(C)C)C(=O)N[C@@H](CCCCN)C(=O)N[C@@H](CC(C)C)C(=O)N[C@@H](CC(C)C)C(=O)N[C@@H](CCCCN)C(N)=O — CC50 (HDMEC; cytotoxicity): 102 µM
O=C(O[C@@H]1Cc2c(O)cc(O)cc2O[C@H]1c1cc(O)c(O)c(O)c1)c1cc(O)c(O)c(O)c1 — CC50 (Huh-7, mock-infected; MTS; 4 (unit not given)): 12 ± 12 µM
O=C(O[C@@H]1Cc2c(O)cc(O)cc2O[C@H]1c1ccc(O)c(O)c1)c1cc(O)c(O)c(O)c1 — CC50 (Huh-7, mock-infected; MTS; 4 (unit not given)): 33.8 ± 7.9 µM
CCN(CC)C12C3CCC4C3C3C(CCC31)C42 — CC50 (dog cells; cytotoxicity; 3 (unit not given)): > 100 µM
Cc1ccc(NCCN(C)CCNc2ccnc3cc(Cl)ccc23)c2c(=O)c3ccccc3sc12 — CC50 (Vero-E6, HeLa, HEK-293T, Huh7.5 cells average; cell viability, nuclei count; 16 h): > 25 µM
